# Results gathered from unrelated publications.
# Compare with care: the assays were run in different laboratories. Several values in a cell are separate wells, animals, samples, runs or records. Numbers after ± are the reported error.
# P4HB: Protein disulfide-isomerase (P4HB, Homo sapiens, UniProt P07237)
# Chain of UniProt P07237 (whole entry, looked up): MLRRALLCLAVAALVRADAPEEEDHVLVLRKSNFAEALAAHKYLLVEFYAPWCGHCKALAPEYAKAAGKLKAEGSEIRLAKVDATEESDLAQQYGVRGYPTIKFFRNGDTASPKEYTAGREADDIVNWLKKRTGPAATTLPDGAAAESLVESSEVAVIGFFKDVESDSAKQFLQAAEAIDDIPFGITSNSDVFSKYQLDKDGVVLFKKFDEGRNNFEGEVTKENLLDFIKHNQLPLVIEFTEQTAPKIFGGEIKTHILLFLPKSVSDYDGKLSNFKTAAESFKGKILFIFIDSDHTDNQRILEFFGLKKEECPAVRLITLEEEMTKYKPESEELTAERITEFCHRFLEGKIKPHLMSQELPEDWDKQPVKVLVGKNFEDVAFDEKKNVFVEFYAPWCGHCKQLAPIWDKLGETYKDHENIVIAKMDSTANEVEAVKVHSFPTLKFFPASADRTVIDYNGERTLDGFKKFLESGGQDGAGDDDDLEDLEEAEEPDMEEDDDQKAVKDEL
# Luciferin 4-monooxygenase: Luciferin 4-monooxygenase (Photinus pyralis, UniProt P08659)
# Chain of UniProt P08659 (whole entry, looked up): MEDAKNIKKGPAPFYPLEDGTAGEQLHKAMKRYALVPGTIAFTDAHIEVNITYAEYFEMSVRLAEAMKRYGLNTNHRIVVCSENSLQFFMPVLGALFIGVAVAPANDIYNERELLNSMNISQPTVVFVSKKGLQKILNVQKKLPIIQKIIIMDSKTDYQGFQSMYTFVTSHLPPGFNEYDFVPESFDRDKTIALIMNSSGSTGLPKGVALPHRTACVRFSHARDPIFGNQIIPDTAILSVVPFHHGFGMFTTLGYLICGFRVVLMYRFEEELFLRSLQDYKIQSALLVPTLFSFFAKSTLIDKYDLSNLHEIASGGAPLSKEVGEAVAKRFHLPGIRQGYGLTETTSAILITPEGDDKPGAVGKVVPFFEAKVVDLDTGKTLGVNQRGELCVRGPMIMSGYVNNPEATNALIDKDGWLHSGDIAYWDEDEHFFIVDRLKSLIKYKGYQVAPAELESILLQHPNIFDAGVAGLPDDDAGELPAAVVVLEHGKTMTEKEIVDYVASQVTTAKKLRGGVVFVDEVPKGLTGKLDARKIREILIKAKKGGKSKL
# HTR1E: 5-hydroxytryptamine receptor 1E (HTR1E, Homo sapiens, UniProt P28566)
# Chain of UniProt P28566 (whole entry, looked up): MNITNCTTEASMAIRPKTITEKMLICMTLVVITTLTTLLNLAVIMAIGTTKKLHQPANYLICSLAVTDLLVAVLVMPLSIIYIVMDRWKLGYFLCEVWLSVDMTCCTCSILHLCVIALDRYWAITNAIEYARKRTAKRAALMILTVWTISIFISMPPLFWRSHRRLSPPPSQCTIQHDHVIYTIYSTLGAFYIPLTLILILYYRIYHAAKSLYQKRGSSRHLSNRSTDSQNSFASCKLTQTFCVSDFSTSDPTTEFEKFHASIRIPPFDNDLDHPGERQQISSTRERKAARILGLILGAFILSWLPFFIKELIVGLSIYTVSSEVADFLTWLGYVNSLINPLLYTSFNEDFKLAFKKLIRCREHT
# Palmitoyl-protein thioesterase 1: Palmitoyl-protein thioesterase 1 (Homo sapiens, UniProt P50897)
# Chain of UniProt P50897 (whole entry, looked up): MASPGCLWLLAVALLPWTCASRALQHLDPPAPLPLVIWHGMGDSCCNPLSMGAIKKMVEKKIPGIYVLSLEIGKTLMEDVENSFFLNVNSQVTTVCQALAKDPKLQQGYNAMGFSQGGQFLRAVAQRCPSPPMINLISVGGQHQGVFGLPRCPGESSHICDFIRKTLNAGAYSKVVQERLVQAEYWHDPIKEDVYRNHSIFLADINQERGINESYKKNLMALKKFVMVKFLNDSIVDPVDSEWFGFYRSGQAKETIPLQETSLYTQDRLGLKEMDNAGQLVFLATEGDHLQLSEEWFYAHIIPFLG
# BDKRB2: B2 bradykinin receptor (BDKRB2, Homo sapiens, UniProt P30411)
# Chain of UniProt P30411 (whole entry, looked up): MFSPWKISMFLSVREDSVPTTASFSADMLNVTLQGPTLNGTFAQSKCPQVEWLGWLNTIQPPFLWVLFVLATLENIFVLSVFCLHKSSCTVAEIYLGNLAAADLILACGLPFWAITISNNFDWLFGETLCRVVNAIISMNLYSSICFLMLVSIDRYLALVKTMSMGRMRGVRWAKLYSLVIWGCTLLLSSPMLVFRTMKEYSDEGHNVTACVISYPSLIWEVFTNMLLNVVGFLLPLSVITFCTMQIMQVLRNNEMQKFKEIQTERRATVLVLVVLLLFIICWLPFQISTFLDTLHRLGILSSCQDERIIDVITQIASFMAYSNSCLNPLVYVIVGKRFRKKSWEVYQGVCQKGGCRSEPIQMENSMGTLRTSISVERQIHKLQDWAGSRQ
# DRD1: D(1A) dopamine receptor (DRD1, Homo sapiens, UniProt P21728)
# Chain of UniProt P21728 (whole entry, looked up): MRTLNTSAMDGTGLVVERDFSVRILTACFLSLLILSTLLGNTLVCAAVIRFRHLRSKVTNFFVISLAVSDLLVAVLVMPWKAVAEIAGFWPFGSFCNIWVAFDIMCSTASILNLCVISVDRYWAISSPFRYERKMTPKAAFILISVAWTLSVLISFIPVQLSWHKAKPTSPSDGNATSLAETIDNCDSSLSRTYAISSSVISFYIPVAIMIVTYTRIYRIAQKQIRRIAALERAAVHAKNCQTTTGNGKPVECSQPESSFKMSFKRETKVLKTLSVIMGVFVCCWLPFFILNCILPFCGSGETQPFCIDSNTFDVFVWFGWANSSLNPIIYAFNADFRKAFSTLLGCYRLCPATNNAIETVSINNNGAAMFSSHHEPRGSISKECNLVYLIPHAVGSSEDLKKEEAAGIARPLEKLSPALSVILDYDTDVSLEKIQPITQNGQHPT
# Adhesin FmlH lectin domain: Adhesin FmlH, lectin domain (Escherichia coli, UniProt Q1RBS0)
# Chain of UniProt Q9C0K7 (whole entry, looked up): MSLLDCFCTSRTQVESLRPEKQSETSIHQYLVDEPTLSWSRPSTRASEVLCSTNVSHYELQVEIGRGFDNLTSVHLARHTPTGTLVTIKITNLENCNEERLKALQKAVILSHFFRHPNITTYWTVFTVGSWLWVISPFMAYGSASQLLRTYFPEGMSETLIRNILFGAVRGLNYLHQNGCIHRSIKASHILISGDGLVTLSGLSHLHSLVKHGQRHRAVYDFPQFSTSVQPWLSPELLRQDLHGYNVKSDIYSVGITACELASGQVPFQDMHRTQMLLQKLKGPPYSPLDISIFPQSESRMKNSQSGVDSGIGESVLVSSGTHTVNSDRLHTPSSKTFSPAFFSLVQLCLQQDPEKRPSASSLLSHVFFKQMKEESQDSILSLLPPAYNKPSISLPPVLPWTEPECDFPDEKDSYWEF
# Chain of UniProt P06396 (whole entry, unmodified, looked up): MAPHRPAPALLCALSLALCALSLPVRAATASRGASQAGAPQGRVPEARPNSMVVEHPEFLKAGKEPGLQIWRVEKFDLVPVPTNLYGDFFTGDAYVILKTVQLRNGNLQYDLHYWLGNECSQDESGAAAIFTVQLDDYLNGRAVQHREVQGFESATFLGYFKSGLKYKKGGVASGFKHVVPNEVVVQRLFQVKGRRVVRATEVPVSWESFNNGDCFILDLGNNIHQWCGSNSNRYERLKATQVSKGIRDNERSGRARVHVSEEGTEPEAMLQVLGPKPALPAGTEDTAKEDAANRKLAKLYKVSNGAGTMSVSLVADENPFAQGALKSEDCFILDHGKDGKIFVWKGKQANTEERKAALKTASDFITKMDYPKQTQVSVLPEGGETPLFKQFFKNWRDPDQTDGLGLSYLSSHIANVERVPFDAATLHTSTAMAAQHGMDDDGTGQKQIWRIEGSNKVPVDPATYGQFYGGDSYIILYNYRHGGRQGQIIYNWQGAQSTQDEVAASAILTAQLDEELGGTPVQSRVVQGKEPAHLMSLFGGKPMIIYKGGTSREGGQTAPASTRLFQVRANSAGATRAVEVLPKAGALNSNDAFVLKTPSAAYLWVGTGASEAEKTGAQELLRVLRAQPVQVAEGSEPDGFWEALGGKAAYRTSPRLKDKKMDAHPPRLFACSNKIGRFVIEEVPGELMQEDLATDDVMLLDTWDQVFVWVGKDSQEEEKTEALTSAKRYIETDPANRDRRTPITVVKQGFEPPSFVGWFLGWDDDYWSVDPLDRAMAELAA
# Chain of UniProt P05164 (whole entry, looked up): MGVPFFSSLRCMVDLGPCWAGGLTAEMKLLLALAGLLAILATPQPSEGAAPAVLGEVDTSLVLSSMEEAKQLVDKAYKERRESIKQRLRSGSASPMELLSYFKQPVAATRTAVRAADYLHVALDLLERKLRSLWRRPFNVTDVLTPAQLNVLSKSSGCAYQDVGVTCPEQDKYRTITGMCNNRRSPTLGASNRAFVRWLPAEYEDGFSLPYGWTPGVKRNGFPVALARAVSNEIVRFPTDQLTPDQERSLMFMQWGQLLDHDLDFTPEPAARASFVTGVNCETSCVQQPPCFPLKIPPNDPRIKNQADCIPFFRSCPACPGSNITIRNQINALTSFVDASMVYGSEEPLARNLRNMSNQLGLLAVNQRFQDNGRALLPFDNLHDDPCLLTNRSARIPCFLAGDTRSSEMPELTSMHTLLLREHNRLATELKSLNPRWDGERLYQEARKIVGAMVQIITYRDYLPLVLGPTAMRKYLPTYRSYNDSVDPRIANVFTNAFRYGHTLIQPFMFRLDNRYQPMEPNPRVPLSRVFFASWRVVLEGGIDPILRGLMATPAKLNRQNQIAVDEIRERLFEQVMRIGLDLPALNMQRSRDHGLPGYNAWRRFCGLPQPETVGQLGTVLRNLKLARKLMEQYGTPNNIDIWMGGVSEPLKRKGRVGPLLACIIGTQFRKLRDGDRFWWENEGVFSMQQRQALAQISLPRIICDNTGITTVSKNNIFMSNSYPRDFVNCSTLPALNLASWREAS
# Chain of UniProt P78508 (whole entry, looked up): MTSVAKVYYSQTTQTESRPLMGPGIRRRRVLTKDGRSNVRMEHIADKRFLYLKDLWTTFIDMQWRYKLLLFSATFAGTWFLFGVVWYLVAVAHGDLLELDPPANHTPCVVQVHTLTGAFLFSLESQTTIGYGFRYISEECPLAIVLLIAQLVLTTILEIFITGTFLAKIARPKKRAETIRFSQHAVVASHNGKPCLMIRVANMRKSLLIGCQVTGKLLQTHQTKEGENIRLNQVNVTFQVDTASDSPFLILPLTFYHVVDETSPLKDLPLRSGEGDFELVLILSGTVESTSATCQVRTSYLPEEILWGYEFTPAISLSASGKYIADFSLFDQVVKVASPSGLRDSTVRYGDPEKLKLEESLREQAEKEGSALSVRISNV
SMILES,target,assay,system,conditions,inhibition
COc1ccc(S(=O)(=O)N(CC(=O)NO)CC(C)C)cc1,"MMP2 (Homo sapiens, UniProt P08253)",fluorometric,,10 ng/mL,89%
C[C@H]1[C@H](OC(=O)CCC(=O)O)O[C@@H]2O[C@@]3(C)CC[C@H]4[C@H](C)CC[C@@H]1[C@@]24OO3,"Non-structural polyprotein pORF1, helicase domain (Hepatitis E virus genotype 1, UniProt P33424)",ATPase activity,,"4.8 µM, together with: ATP 100 µM",23.5%
O=C(OC[C@H]1O[C@@H](OC(=O)c2cc(O)c(O)c(O)c2)[C@H](OC(=O)c2cc(O)c(O)c(O)c2)[C@@H](OC(=O)c2cc(O)c(O)c(O)c2)[C@@H]1OC(=O)c1cc(O)c(O)c(O)c1)c1cc(O)c(O)c(O)c1,P4HB,di-eosin-GSSG reductase activity,,"20 µM, 15 min",inhibited
Cc1cccc(N(O)N=Nc2ccc(S(=O)(=O)Nc3cc(C)on3)cc2)c1,"α-glucosidase, rat intestine",enzyme activity,,"300 µg/mL, together with: 4-nitrophenyl α-D-glucopyranoside",47.5 ± 1.3%
Cc1nn(-c2nc3c(F)cc(F)cc3s2)c(O)c1C(c1ccc(C(F)(F)F)cc1)c1c(C)nn(-c2nc3c(F)cc(F)cc3s2)c1O,"CGAS (Homo sapiens, UniProt Q8N884)","enzyme activity, inhibitor, pyrophosphatase-coupled",,"100 µM, 1.5 h, together with: HT-DNA",95.8%
Cc1ncc2c(c1-c1noc(C3CN(C(C)C)C3)n1)CCNC2,Luciferin 4-monooxygenase,"luciferase luminescence, inhibitor",cell-free,"50 µM, counter-screen",3.03%
CCCN(O)N=Nc1ccc(S(=O)(=O)Nc2cc(C)on2)cc1,"α-glucosidase, rat intestine",enzyme activity,,"240 µg/mL, together with: 4-nitrophenyl α-D-glucopyranoside",52.5 ± 0.29%
COc1cc2ccc(=O)oc2c(OC(C)=O)c1OCC=C(C)C,Luciferin 4-monooxygenase,"luciferase luminescence, inhibitor",cell-free,"50 µM, counter-screen",39.5%
CCCCCCCC/C=C1\C=C(C(F)(F)F)c2cc(O)c(O)cc21,P4HB,"insulin reduction, inhibitor",,"concentration not given, 37 °C, low micromolar preincubation",inhibited
Cc1ccc(OC[C@@H]2CN(CCN3CCc4ccccc43)CCO2)cn1,HTR1E,radioligand binding,,"concentration not given, together with: [3H]5-HT",-11.3%
COc1cc(C(=O)NS(=O)(=O)c2ccccc2C)ccc1Cc1cn(C)c2ccc(NC(=O)OC3CCCC3)cc12,"Volume-regulated anion channel subunit LRRC8C, part LRRC8A IL1 chimera (LRRC8C, Homo sapiens, UniProt Q8TDW0, C43G/S11C)","ion current, inhibitor, whole-cell patch clamp",HCT LRRC8-/- cells,"1 µM, +100 mV",1.16% and -1.8% and 4.83% and -1.1% and 5.3%
[2H]c1cc(C)c(NC(=O)c2cnc(Nc3cc(N4CCCCC4)nc(C)n3)s2)c(Cl)c1,"BLK (Homo sapiens, UniProt P51451)",,,0.01 µM,> 90%
CCc1oc2ccccc2c1C(=O)c1cc(Br)c(O)c(Br)c1,"SLC22A12 (Homo sapiens, UniProt Q96S37, S35A)",urate uptake,HEK293T,"0.5 µM, 10 min, 37 °C, together with: 200 µM [14C]urate",64.6% and 61.9% and 71.4% and 69.6%
NC/C(=C\F)COc1cccc(Cn2c(=S)[nH]c(=O)c3[nH]cnc32)c1,"Myeloperoxidase (MPO, Homo sapiens, UniProt P05164)",enzyme activity,,1 µM,99.1%
Cc1ccc(N(O)N=Nc2ccc(S(=O)(=O)Nc3cc(C)on3)cc2)cc1,"α-glucosidase, rat intestine",enzyme activity,,"180 µg/mL, together with: 4-nitrophenyl α-D-glucopyranoside",42.5 ± 0.29%
CN(C)/N=N/c1[nH]cnc1C(N)=O,Palmitoyl-protein thioesterase 1,Spectrum Collection screen,,"concentration not given, together with: substrate 20 µM",70.9%
CN(O)N=Nc1ccc(S(=O)(=O)Nc2nccs2)cc1,"α-glucosidase, rat intestine",enzyme activity,,"20 µg/mL, together with: 4-nitrophenyl α-D-glucopyranoside",10 ± 0.041%
Cn1cccc1C(=O)N1CCCC1c1ccc(C(=O)N2CCC(C)(C)C2)s1 (stereo not shown),Luciferin 4-monooxygenase,"luciferase luminescence, inhibitor",cell-free,"50 µM, counter-screen",65.1%
COc1ccc(F)cc1C(=O)NCc1ccc(-c2nn([C@@H](C)C(F)(F)F)c(N)c2C(N)=O)cc1,"STE20-related kinase adapter protein beta (Homo sapiens, UniProt Q9C0K7)","target engagement, competitive chemoproteomics",human PBMCs,10 µM,26.6%
CN(C(=O)n1cnc(-c2ccc[n+]([O-])c2)c1)C1CCCCC1,BDKRB2,,,10 µM,20.6%
CN1CCN(c2cc(-c3ccncc3)c(-c3ccc4ccccc4c3)nn2)CC1,BDKRB2,"antagonist, FLIPR",,10 µM,4.4%
Cc1ccnc(OC[C@H]2CN(CC(=O)N3CCc4ccccc43)CCO2)c1,DRD1,radioligand binding,,"concentration not given, together with: [3H]SCH23390",63.7%
CC[C@@H]1[C@H](F)C(=O)N[C@@H]1COc1nccc2cc(C(N)=O)c(OC)cc12,"OXSR1 (Homo sapiens, UniProt O95747)","ATP-site probe binding, ActivX profiling, measured: OSR1",THP-1 cell lysate,"0.2 mM, Lys2 site",-3%
c1cncc(OC[C@@H]2CN(CCN3CCc4ccccc43)CCO2)c1,HTR1E,radioligand binding,,"concentration not given, together with: [3H]5-HT",-10.6%
CN(C)CCCN1c2ccccc2Sc2ccc(C(F)(F)F)cc21,Luciferin 4-monooxygenase,"luciferase luminescence, inhibitor",cell-free,"50 µM, counter-screen",15.2%
Cc1ccc(C(=O)Nc2ccc3ccccc3c2)o1,"ATP-sensitive inward rectifier potassium channel 10 (Homo sapiens, UniProt P78508)","ion current, whole-cell patch-clamp",,10 µM,1.58%
Clc1cncc(OC[C@@H]2CN(CCN3CCc4ccccc43)CCO2)c1,DRD1,radioligand binding,,"concentration not given, together with: [3H]SCH23390",93.6%
Nc1ccc(/N=N/c2ccccc2)c(N)n1,Palmitoyl-protein thioesterase 1,Spectrum Collection screen,,"concentration not given, together with: substrate 20 µM",60.8%
CCN(O)N=Nc1ccc(S(=O)(=O)Nc2cc(C)on2)cc1,"α-glucosidase, rat intestine",enzyme activity,,"180 µg/mL, together with: 4-nitrophenyl α-D-glucopyranoside",60 ± 0.041%
O=C(Nc1cccc2c(=O)cc(-c3nnn[nH]3)oc12)c1ccc(OCCCCc2ccccc2)cc1,"Volume-regulated anion channel subunit LRRC8C, part LRRC8A IL1 chimera (LRRC8C, Homo sapiens, UniProt Q8TDW0, E6A)","ion current, inhibitor, whole-cell patch clamp",HCT LRRC8-/- cells,"0.3 µM, -100 mV",13.7% and 18.5% and 30.8% and 25% and 31.9%
COc1ccc2c(c1)CN(CCCN1CCN(c3ccccc3OC)CC1)C2=O,HTR1E,radioligand binding,,"concentration not given, together with: [3H]5-HT",3.5%
Cc1nc(-c2ccc(C(=O)N3CCC(C)CC3)cc2)cs1,Luciferin 4-monooxygenase,"luciferase luminescence, inhibitor",cell-free,"50 µM, counter-screen",25%
Cc1noc(NS(=O)(=O)c2ccc(N=NN(O)c3ccccc3)cc2)c1C,"α-glucosidase, rat intestine",enzyme activity,,"60 µg/mL, together with: 4-nitrophenyl α-D-glucopyranoside",15 ± 0.26%
CCN1/C(=C/C(C)=O)Sc2ccc(F)cc21,"SLC6A2 (Homo sapiens, UniProt P23975)",,,10 µM,15.3%
Nc1cc(C(Cl)=C(Cl)Cl)c(S(N)(=O)=O)cc1S(N)(=O)=O,Palmitoyl-protein thioesterase 1,Spectrum Collection screen,,"concentration not given, together with: substrate 20 µM",60.4%
Cc1ccc(N(O)N=Nc2ccc(S(=O)(=O)Nc3onc(C)c3C)cc2)cc1,"α-glucosidase, rat intestine",enzyme activity,,"180 µg/mL, together with: 4-nitrophenyl α-D-glucopyranoside",30 ± 0.09%
OC[C@H]1O[C@@H](Oc2ccccc2)[C@H](O)[C@@H](O)[C@H]1O,Adhesin FmlH lectin domain,"binding to desialylated mucin, ELISA competition",UPEC UTI89,100 µM,76.9 ± 0.4%
O=C(O)C1=CC(=C(c2ccc(O)c(C(=O)O)c2)c2ccc(O)c(C(=O)O)c2)C=CC1=O,Luciferin 4-monooxygenase,"luciferase luminescence, inhibitor",cell-free,"50 µM, counter-screen",64.4%
COc1cc2c(cc1OC)C(=O)N(CCCCN1CCN(c3ccccc3OC)CC1)C2,HTR1E,radioligand binding,,"concentration not given, together with: [3H]5-HT",16.5%
COc1ccc(S(=O)(=O)N(CC(=O)O)C(=O)c2ccc(C(=O)N(CC(=O)O)S(=O)(=O)c3ccc(OC)cc3)c3ccccc23)cc1,"Kelch-like ECH-associated protein 1, Kelch domain (KEAP1, Homo sapiens, UniProt Q14145)","binding, fluorescence polarization competition",,50 µM,no inhibition
CN(C)c1cnn(CC2CC(c3ccccc3)=NO2)c(=O)c1 (stereo not shown),Luciferin 4-monooxygenase,"luciferase luminescence, inhibitor",cell-free,"50 µM, counter-screen",86.6%
Nc1cc(-c2ccncc2)c[nH]c1=O,Palmitoyl-protein thioesterase 1,Spectrum Collection screen,,"concentration not given, together with: substrate 20 µM",68.5%
Nc1ncnc2[nH]cnc12,"Gelsolin, peptide (GSN, Homo sapiens, UniProt P06396, D214Y)","amyloid aggregation, ThT fluorescence",,"100 µM, 12 h, 37 °C, cpd to peptide 1:1 molar",23%
O=S(=O)(c1cccc2cnccc12)N1CCCNCC1,Palmitoyl-protein thioesterase 1,Spectrum Collection screen,,"concentration not given, together with: substrate 20 µM",62%
CC(C)S[C@@H]1O[C@H](CO)[C@H](O)[C@H](O)[C@H]1O,Adhesin FmlH lectin domain,"binding to desialylated mucin, ELISA competition",UPEC UTI89,100 µM,23.7 ± 5.3%
Clc1cccc(OC[C@@H]2CN(CCN3CCc4ccccc43)CCO2)c1,DRD1,radioligand binding,,"concentration not given, together with: [3H]SCH23390",72.5%
Cc1noc(NS(=O)(=O)c2ccc(N=NN(C)O)cc2)c1C,"α-glucosidase, rat intestine",enzyme activity,,"60 µg/mL, together with: 4-nitrophenyl α-D-glucopyranoside",12.25 ± 0.013%
O=C1c2ccccc2CCN1CCCCN1CCN(c2cccc(Cl)c2Cl)CC1,HTR1E,radioligand binding,,"concentration not given, together with: [3H]5-HT",64.5%
O=C(NO)c1ccc(CN2CCCCc3ccccc32)c(F)c1,HTR1E,"radioligand binding, PDSP radioligand binding",,10 µM,-5.05%

# A few entries again:
SMILES,target,assay,system,conditions,inhibition
Nc1cc(C(Cl)=C(Cl)Cl)c(S(N)(=O)=O)cc1S(N)(=O)=O,Palmitoyl-protein thioesterase 1,Spectrum Collection screen,,"concentration not given, together with: substrate 20 µM",60.4%
OC[C@H]1O[C@@H](Oc2ccccc2)[C@H](O)[C@@H](O)[C@H]1O,Adhesin FmlH lectin domain,"binding to desialylated mucin, ELISA competition",UPEC UTI89,100 µM,76.9 ± 0.4%
O=S(=O)(c1cccc2cnccc12)N1CCCNCC1,Palmitoyl-protein thioesterase 1,Spectrum Collection screen,,"concentration not given, together with: substrate 20 µM",62%
Cc1ccc(C(=O)Nc2ccc3ccccc3c2)o1,"ATP-sensitive inward rectifier potassium channel 10 (Homo sapiens, UniProt P78508)","ion current, whole-cell patch-clamp",,10 µM,1.58%
CCN1/C(=C/C(C)=O)Sc2ccc(F)cc21,"SLC6A2 (Homo sapiens, UniProt P23975)",,,10 µM,15.3%
CN1CCN(c2cc(-c3ccncc3)c(-c3ccc4ccccc4c3)nn2)CC1,BDKRB2,"antagonist, FLIPR",,10 µM,4.4%
COc1ccc(F)cc1C(=O)NCc1ccc(-c2nn([C@@H](C)C(F)(F)F)c(N)c2C(N)=O)cc1,"STE20-related kinase adapter protein beta (Homo sapiens, UniProt Q9C0K7)","target engagement, competitive chemoproteomics",human PBMCs,10 µM,26.6%
